Published values from different studies.
Protocols differ between the studies behind these lines. Numbers after ± are the reported error.

| Compound | assay | system | conditions | Cmax |
| --- | --- | --- | --- | --- |
| COCC12CCC(OC)C34C5CC6(O)C(OC)C(O)C(O)(C5C6OC(=O)c5ccccc5)C(C(OC)C13)C4N(C)C2 (stereo not shown) | – | Sprague-Dawley rat, plasma | oral, dose not given, with NADES in PCW extract | 191 ± 30.9 ng/mL |
| COc1cccc2c1C(=O)c1c(O)c3c(c(O)c1C2=O)CC(O)(C(=O)CO)CC3OC1CC(NC(=O)OC2C=CCCC(C)(C(=O)NCC(=O)O)CC2)C(O)C(C)O1 (stereo not shown) | – | Sprague Dawley rats male, plasma | intravenous, 21.5 mg/kg/day doxorubicin equivalent, day 4 | 1960 ± 236 ng/mL |
| O=C(O)/C=C\c1ccc2occc2c1O[C@@H]1O[C@H](CO)[C@@H](O)[C@H](O)[C@H]1O | – | rat, plasma | oral, 500 mg/kg Eu + 217 mg/kg Pc extract, dosed as combined Eu and Pc extracts | 136 ± 64.9 ng/mL |
| CCCCCCCCCCCCCCCC(=O)N[C@@H](CCC(=O)NCCOCCOCCC(=O)NCCOCCOCCC(=O)NCCCC[C@H](NC(=O)[C@H](CC(=O)O)NC(=O)[C@H](CC(C)C)NC(=O)[C@H](Cc1ccc(O)cc1)NC(=O)[C@H](CCCCN)NC(=O)[C@H](CO)NC(=O)[C@H](Cc1ccc(O)cc1)NC(=O)[C@H](CC(=O)O)NC(=O)[C@H](CO)NC(=O)[C@@H](NC(=O)[C@H](Cc1ccccc1)NC(=O)[C@@H](NC(=O)CNC(=O)[C@H](CCC(N)=O)NC(=O)[C@@H](CO)NC(=O)[C@@H](N)Cc1c[nH]cn1)[C@@H](C)O)[C@@H](C)O)C(=O)N[C@@H](CCCNC(=N)N)C(=O)N[C@@H](CCCNC(=N)N)C(=O)N[C@@H](C)C(=O)N[C@@H](CCC(N)=O)C(=O)N[C@@H](CC(=O)O)C(=O)N[C@@H](Cc1ccccc1)C(=O)N[C@H](C(=O)N[C@@H](CCC(N)=O)C(=O)N[C@@H](Cc1c[nH]c2ccccc12)C(=O)N[C@@H](CC(C)C)C(=O)N[C@@H](CC(C)C)C(=O)N[C@@H](CC(N)=O)C(=O)N[C@H](C(=O)NCC(=O)NCC(=O)N1CCC[C@H]1C(=O)N[C@@H](CO)C(=O)N[C@@H](CO)C(=O)NCC(=O)N[C@@H](C)C(=O)N1CCC[C@H]1C(=O)N1CCC[C@H]1C(=O)N1CCC[C@H]1C(=O)N[C@@H](CO)C(N)=O)[C@@H](C)O)C(C)C)C(=O)O | – | rhesus monkey, female, plasma | subcutaneous, 60 µg/kg, day 28, toxicokinetics, mean | 180 ng/mL |
| CC[C@H](C)[C@H](NC(=O)[C@H](Cc1ccc(O)cc1)NC(=O)[C@@H](NC(=O)[C@H](CCCNC(=N)N)NC(=O)[C@@H](N)CC(=O)O)C(C)C)C(=O)N[C@@H](Cc1c[nH]cn1)C(=O)N1CCC[C@H]1C(=O)O | LC-MS/MS | Beagle dog both sexes, plasma | subcutaneous, 10 mg/kg/day, day 27, noncompartmental | 953 ± 377 ng/mL |
| Cc1cc(Nc2nc(C[C@@]3(C(=O)O)CCN(Cc4cccc(Cl)c4F)[C@H](C)C3)cc(C)c2F)n[nH]1 | – | mouse, IMR-32 xenograft, plasma | oral, 2.5 mg/kg once daily | 3940 ng/mL |
| O=C(c1cc(Cc2n[nH]c(=O)c3ccccc23)ccc1F)N1CC(CNC2CC2)C1 | – | female Wistar Han rat | oral, 15 mg/kg, day 28 | 1020 ng/mL |
| CCOc1ccccc1-n1c(CN2CCNCC2)nc2ccccc2c1=O | – | C57BL/6 mouse, male, plasma | oral, 6 mg/kg | 1390 nM |
| CC[C@H](C)[C@H](NC(=O)[C@H](CCCN)NC(=O)[C@H](CCCNC(=N)N)NC(=O)[C@@H]1CCCN1C(=O)[C@@H]1CCCN1C(=O)[C@H](CCCNC(=N)N)NC(=O)[C@@H]1CCCN1C(=O)[C@H](CCCNC(=N)N)NC(=O)[C@@H]1CCCN1C(=O)[C@H](CC(C)C)NC(=O)[C@H](Cc1ccc(O)cc1)NC(=O)[C@@H]1CCCN1C(=O)[C@@H]1CCCN1C(=O)[C@H](CCCCN)NC(=O)[C@H](CC(=O)O)NC(=O)[C@@H](N)C(C)C)C(=O)N[C@@H](Cc1ccc(O)cc1)C(=O)N[C@@H](CC(N)=O)C(=O)N[C@@H](CCCN)C(N)=O | competitive ELISA | mouse CD-1, female, plasma | subcutaneous, 4.34 µmol/kg | 6700 ± 2000 ng/mL |
| C/C(=N\OCCCN1CCCCC1)c1ccc(C(F)(F)F)cc1 | – | mouse, plasma | oral, 100 mg/kg twice daily, day 7 | 1330 ± 574 ng/mL |

Excerpt of the above:
| Compound | assay | system | conditions | Cmax |
| --- | --- | --- | --- | --- |
| CC[C@H](C)[C@H](NC(=O)[C@H](CCCN)NC(=O)[C@H](CCCNC(=N)N)NC(=O)[C@@H]1CCCN1C(=O)[C@@H]1CCCN1C(=O)[C@H](CCCNC(=N)N)NC(=O)[C@@H]1CCCN1C(=O)[C@H](CCCNC(=N)N)NC(=O)[C@@H]1CCCN1C(=O)[C@H](CC(C)C)NC(=O)[C@H](Cc1ccc(O)cc1)NC(=O)[C@@H]1CCCN1C(=O)[C@@H]1CCCN1C(=O)[C@H](CCCCN)NC(=O)[C@H](CC(=O)O)NC(=O)[C@@H](N)C(C)C)C(=O)N[C@@H](Cc1ccc(O)cc1)C(=O)N[C@@H](CC(N)=O)C(=O)N[C@@H](CCCN)C(N)=O | competitive ELISA | mouse CD-1, female, plasma | subcutaneous, 4.34 µmol/kg | 6700 ± 2000 ng/mL |
